Assay results from different studies.
Every numbered part comes from another study and shows a few of its results, in no order. Values joined by “and” are separate records of one study, mostly repeats; a detail may differ.
UniProt O75676, sequence (whole entry, looked up): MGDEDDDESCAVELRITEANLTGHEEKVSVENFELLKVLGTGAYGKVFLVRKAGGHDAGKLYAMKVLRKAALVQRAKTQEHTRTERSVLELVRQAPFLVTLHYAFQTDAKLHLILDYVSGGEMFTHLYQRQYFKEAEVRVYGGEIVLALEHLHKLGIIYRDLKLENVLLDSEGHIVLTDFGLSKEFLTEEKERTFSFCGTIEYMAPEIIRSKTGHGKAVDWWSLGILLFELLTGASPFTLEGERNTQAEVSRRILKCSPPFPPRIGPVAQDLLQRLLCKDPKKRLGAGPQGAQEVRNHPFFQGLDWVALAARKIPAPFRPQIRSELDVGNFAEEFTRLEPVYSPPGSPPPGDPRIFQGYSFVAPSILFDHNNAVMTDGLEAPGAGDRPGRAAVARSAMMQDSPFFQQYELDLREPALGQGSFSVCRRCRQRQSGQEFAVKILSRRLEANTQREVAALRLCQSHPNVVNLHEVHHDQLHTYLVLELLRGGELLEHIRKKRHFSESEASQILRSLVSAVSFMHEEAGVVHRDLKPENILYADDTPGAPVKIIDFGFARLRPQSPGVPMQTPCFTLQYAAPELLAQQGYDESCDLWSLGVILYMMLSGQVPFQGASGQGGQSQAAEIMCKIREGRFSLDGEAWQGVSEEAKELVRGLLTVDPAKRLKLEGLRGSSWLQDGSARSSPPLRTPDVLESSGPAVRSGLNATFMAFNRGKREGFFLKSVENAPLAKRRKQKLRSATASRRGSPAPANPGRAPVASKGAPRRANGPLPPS
UniProt P35968, sequence (whole entry, looked up): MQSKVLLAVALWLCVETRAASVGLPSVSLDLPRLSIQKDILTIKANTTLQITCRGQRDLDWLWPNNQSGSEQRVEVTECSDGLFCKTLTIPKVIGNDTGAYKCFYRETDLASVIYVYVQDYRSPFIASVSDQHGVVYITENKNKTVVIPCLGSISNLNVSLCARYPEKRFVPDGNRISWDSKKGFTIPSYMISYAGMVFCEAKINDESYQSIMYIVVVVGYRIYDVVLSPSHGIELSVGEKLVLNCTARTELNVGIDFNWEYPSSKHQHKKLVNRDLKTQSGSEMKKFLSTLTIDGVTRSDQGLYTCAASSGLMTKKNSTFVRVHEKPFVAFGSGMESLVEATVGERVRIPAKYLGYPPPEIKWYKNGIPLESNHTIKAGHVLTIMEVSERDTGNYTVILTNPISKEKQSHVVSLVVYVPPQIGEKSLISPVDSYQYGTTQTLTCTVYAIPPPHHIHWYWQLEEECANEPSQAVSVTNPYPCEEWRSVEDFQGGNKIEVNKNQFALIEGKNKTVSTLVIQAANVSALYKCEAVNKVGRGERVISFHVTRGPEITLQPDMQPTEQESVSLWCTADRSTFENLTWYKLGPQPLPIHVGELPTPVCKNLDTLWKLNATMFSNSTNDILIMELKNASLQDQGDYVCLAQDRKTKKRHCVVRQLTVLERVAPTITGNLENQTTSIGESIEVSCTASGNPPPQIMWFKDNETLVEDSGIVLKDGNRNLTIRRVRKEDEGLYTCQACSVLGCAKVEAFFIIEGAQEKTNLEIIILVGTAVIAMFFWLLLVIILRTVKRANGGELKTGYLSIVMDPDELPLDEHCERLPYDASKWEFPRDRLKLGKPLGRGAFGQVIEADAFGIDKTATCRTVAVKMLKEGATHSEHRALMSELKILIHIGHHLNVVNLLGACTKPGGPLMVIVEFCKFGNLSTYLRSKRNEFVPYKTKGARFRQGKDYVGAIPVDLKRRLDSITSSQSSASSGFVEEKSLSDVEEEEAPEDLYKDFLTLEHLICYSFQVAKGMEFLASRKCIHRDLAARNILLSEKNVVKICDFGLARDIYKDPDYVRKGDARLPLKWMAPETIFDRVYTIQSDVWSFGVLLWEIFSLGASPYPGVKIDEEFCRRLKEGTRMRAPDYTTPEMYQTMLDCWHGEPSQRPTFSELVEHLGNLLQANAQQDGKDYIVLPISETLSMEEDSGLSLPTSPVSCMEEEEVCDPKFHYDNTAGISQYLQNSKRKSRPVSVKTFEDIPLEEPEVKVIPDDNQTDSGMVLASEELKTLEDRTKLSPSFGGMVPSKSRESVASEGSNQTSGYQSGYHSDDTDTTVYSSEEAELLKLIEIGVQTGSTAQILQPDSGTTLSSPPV
UniProt Q16566, sequence (whole entry, looked up): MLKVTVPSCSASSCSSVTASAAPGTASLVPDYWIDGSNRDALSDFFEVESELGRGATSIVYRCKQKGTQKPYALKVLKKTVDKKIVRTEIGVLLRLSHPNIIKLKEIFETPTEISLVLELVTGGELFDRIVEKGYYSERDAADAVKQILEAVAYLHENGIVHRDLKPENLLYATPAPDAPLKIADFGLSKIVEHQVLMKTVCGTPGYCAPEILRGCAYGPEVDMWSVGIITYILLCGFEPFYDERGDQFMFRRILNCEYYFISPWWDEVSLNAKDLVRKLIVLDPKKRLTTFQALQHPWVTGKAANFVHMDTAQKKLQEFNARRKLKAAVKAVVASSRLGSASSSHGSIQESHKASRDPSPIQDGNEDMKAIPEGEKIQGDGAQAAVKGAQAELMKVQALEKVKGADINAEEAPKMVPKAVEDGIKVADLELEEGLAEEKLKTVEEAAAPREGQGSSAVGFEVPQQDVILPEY
UniProt Q15759, sequence (whole entry, looked up): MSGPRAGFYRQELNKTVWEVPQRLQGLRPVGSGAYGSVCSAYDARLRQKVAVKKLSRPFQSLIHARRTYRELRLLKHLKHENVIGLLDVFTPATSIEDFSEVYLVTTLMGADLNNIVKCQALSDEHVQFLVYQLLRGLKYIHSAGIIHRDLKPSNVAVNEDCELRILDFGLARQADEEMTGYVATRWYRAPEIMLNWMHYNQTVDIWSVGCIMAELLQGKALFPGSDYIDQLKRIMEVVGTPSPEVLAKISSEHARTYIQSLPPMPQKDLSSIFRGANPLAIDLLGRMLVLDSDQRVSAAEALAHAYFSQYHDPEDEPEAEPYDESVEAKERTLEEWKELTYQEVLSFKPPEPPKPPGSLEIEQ
UniProt Q16539, sequence (whole entry, looked up): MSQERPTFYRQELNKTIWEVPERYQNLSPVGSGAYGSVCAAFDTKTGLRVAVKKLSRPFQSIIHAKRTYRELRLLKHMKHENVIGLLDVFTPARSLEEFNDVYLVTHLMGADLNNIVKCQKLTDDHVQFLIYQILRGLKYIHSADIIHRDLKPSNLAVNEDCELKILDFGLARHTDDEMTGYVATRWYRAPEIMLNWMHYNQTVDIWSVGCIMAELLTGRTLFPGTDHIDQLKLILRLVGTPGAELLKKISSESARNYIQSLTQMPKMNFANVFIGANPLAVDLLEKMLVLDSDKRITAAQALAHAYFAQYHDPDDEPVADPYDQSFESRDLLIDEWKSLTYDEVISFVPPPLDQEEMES
UniProt P32298, sequence (whole entry, looked up): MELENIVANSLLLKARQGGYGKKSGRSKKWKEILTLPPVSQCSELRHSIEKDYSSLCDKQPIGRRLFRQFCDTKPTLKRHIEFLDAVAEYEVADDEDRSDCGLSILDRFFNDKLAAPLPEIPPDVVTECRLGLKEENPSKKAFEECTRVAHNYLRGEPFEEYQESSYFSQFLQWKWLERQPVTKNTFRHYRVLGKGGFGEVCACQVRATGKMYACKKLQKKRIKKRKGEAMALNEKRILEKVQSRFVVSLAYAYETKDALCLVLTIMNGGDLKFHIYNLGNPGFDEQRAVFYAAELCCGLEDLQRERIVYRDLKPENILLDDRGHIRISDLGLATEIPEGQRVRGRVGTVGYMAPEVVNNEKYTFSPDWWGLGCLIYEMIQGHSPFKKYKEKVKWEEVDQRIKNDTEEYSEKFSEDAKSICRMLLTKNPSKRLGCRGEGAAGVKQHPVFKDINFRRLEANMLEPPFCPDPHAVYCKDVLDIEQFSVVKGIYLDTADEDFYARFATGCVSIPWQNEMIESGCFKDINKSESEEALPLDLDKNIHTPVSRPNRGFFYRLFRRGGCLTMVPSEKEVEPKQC
UniProt Q7KZI7, sequence (whole entry, looked up): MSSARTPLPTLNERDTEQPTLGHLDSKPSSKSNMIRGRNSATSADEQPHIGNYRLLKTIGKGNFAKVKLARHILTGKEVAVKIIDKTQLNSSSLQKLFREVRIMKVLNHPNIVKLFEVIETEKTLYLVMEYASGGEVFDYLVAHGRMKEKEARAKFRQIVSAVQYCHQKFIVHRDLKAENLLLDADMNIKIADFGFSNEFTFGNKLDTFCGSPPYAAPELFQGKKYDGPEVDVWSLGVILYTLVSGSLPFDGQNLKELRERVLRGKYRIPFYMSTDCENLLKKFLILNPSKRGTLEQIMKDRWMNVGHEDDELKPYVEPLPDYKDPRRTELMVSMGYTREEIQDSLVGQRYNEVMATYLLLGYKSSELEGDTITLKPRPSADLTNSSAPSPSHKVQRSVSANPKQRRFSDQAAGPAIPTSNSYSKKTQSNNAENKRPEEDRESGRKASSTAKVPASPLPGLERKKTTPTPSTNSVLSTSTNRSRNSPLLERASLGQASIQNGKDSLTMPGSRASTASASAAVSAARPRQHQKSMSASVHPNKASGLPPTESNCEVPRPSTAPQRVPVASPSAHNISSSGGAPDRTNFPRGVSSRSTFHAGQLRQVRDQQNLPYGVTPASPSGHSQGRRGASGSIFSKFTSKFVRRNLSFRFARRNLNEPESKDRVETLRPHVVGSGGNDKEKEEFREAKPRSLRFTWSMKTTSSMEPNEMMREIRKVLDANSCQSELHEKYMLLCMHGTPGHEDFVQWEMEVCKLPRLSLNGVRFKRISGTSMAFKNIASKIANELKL
UniProt Q6P2M8, sequence (whole entry, looked up): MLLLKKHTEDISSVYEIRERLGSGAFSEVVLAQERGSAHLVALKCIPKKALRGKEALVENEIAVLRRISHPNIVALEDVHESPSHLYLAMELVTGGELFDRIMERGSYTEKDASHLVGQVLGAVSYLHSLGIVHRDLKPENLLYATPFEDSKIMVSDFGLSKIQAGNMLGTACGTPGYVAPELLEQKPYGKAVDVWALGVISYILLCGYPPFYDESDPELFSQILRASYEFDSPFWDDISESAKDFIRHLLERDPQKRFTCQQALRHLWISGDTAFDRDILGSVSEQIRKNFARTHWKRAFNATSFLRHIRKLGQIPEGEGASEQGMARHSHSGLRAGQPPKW

Study 1
Cell line: normal-adjacent epithelium patient-derived organoids sample E
Method: CellTiter-Glo
Concentration: 1 µM
Reference: DMSO
For `O=C(NCc1ccccc1)c1ccc(S(=O)(=O)NCc2ccccc2)cc1`, the viability was 150% and 123%.
For `CCNC(=O)c1cc2c(N3CCOC[C@H]3C)ccnc2n1C`, the viability was 120% and 106%.
For `CCOc1cn(-c2ccc(F)cc2C)nc1C(=O)Nc1ccc(Oc2ccnc3cc(OC)c(OC)cc23)c(F)c1`, the viability was 65.3% and 80.2%.
`COc1cc(Nc2ncc3c(n2)-c2ccc(Cl)cc2C(c2c(F)cccc2OC)=NC3)ccc1C(=O)O` gave a viability of 33.7%.
For `CCC(=NO)C(C)=Cc1ccc(F)c(C)c1`, the viability was 114% and 104%.
`Cn1cc(-c2ccc3occ(-c4cccc(-c5ccncc5)c4)c3n2)cn1` has a viability of 82.7%.
`Cc1cc2c(-c3ccco3)cnc(N[C@@H]3CCN(C)C[C@H]3C(=O)NC3CCCCC3)c2[nH]c1=O` gave a viability of 71.3%.

Study 2
Organism: Sarcocystis neurona
Effect on: parasite growth
Concentration: 10 µM
Time: 96 h
Notes: second screen
Reference: untreated
`NCC(=O)CCC(=O)O` — result for “log2 fold change”: 0.17.
Under “log2 fold change”, `CC(C)C[C@H](NC(=O)[C@@H](O)[C@H](N)Cc1ccccc1)C(=O)O` is recorded as 0.52.
`CO/N=C(\C(=O)N[C@@H]1C(=O)N2C(C(=O)O)=C(COC(C)=O)CS[C@H]12)c1csc(N)n1`: “log2 fold change” 0.16.
Under “log2 fold change”, `CCOC(=O)OC(C)OC1=C(C(=O)Nc2ccccn2)N(C)S(=O)(=O)c2ccccc21` (centres unmarked) is recorded as 0.41.
For `CNCC[C@@H](Oc1ccccc1C)c1ccccc1`, “log2 fold change” read 0.43.
`OCc1cccnc1` — result for “log2 fold change”: 0.41.
`CC(=O)S[C@@H]1CC2=CC(=O)CC[C@]2(C)[C@H]2CC[C@@]3(C)[C@@H](CC[C@@]34CCC(=O)O4)[C@H]12` — result for “log2 fold change”: 0.16.

Study 3
Host: human
Medium: microsomes or S9
Concentration: 2 µM
Time: 0.5 h
The remaining compound of `Cc1nc2c([nH]1)CCC(C(=O)Nc1onc3c1CCCC3)C2` (centres unmarked) is reported as greater than 99.9%.
With `O=C(NCCN1CCCCC1)c1cc2ccccc2s1` the remaining compound was 4.53%.
`Cn1nc(C2CCN(C(=O)[C@H]3CC(=O)NC(=O)N3)CC2)n(-c2ccccc2)c1=O` gave a remaining compound of 80.6%.
For `CCN(CC)CCCNc1sc(S(C)(=O)=O)nc1S(=O)(=O)c1ccc(C)cc1`, the remaining compound was 75.4%.
For `c1ccc(-n2ncc3c2N=C(N2CCC(n4ccnc4)CC2)NC3)cc1`, the remaining compound was 89.6%.
`Cc1cc(NCc2cn[nH]c2-c2ccccc2)ccc1Br` has a remaining compound of 18.8%.
`CCN1CCN(c2nc(-c3ccc(C)cc3)cc3cc(C)ccc23)CC1` gave a remaining compound of 29.1%.

Study 4
SMILES: COc1ccc(C(=O)Nc2sc3c(c2C(N)=O)CCCC3)cc1OC
Effect on: enzyme activity
Mode: inhibitor
Concentration: 0.5 µM
Reference: control
It gave 95.7% for remaining activity (Calcium/calmodulin-dependent protein kinase type IV (CAMK4, Homo sapiens, UniProt Q16566)).
The remaining activity was 86.8% (Dual specificity protein kinase CLK4 (CLK4, Homo sapiens, UniProt Q9HAZ1)).
G protein-coupled receptor kinase 4 (GRK4, Homo sapiens, UniProt P32298) — remaining activity: 95.1%.
It gave 95.8% for remaining activity (Serine/threonine-protein kinase Nek3 (NEK3, Homo sapiens, UniProt P51956)).
The remaining activity was 98.6% (Serine/threonine-protein kinase DCLK2 (DCLK2, Homo sapiens, UniProt Q8N568)).
Tyrosine-protein kinase TXK (TXK, Homo sapiens, UniProt P42681) — remaining activity: 96.2%.
It gave 97.5% for remaining activity (Mitogen-activated protein kinase 14 (MAPK14, Homo sapiens, UniProt Q16539)).
The remaining activity was 104% (Mitogen-activated protein kinase 11 (MAPK11, Homo sapiens, UniProt Q15759)).
It gave 98.7% for remaining activity (Serine/threonine-protein kinase MARK2 (MARK2, Homo sapiens, UniProt Q7KZI7)).
Calcium/calmodulin-dependent protein kinase type 1B (PNCK, Homo sapiens, UniProt Q6P2M8) — remaining activity: 103%.
Ribosomal protein S6 kinase alpha-4 (RPS6KA4, Homo sapiens, UniProt O75676) — remaining activity: 102%.
It gave 96.2% for remaining activity (Serine/threonine-protein kinase PAK 3 (PAK3, Homo sapiens, UniProt O75914)).
Vascular endothelial growth factor receptor 2 (KDR, Homo sapiens, UniProt P35968) — remaining activity: 78.2%.
The remaining activity was 95% (Serine/threonine-protein kinase PLK3 (PLK3, Homo sapiens, UniProt Q9H4B4)).

Excerpt of the above (study 2):
`CO/N=C(\C(=O)N[C@@H]1C(=O)N2C(C(=O)O)=C(COC(C)=O)CS[C@H]12)c1csc(N)n1`: “log2 fold change” 0.16.
`OCc1cccnc1` — result for “log2 fold change”: 0.41.
Under “log2 fold change”, `CC(C)C[C@H](NC(=O)[C@@H](O)[C@H](N)Cc1ccccc1)C(=O)O` is recorded as 0.52.
For `CNCC[C@@H](Oc1ccccc1C)c1ccccc1`, “log2 fold change” read 0.43.
